Measurements of several laboratories.
Parts stem from different laboratories: compare values within a part only. pEC50: −log10 of the molar value.
Sequence of UniProt P31645 (whole entry, looked up): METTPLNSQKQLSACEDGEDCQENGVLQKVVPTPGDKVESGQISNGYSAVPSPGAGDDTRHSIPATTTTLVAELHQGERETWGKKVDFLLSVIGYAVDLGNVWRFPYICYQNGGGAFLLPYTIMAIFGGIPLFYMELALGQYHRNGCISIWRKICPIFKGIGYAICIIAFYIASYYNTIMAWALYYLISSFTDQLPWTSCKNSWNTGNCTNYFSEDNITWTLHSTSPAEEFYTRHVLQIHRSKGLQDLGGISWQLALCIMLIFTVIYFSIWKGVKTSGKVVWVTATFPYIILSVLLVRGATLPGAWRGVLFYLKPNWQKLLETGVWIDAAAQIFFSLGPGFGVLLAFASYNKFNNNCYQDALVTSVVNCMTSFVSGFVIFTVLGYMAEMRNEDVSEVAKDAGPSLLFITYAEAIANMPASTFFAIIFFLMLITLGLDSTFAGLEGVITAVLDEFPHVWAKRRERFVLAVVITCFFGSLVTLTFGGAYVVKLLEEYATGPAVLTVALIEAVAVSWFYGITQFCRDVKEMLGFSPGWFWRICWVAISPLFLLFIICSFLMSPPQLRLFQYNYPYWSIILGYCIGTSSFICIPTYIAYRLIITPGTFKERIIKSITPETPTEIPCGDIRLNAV
Sequence of UniProt P20309 (whole entry, looked up): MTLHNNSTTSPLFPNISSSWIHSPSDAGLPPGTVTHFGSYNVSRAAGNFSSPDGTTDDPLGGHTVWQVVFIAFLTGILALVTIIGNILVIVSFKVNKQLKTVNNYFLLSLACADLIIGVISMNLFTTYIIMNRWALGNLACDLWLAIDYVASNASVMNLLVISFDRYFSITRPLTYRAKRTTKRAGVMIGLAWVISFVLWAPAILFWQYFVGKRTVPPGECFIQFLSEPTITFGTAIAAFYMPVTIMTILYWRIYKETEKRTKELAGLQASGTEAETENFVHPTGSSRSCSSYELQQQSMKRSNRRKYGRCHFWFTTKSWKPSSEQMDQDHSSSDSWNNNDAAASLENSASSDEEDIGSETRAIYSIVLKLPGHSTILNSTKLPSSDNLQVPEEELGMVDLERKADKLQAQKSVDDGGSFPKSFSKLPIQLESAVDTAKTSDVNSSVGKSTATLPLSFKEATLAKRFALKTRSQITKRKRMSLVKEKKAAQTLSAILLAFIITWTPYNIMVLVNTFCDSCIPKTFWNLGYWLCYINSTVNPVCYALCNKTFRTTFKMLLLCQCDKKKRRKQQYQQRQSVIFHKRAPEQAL
Sequence of UniProt P21918 (whole entry, looked up): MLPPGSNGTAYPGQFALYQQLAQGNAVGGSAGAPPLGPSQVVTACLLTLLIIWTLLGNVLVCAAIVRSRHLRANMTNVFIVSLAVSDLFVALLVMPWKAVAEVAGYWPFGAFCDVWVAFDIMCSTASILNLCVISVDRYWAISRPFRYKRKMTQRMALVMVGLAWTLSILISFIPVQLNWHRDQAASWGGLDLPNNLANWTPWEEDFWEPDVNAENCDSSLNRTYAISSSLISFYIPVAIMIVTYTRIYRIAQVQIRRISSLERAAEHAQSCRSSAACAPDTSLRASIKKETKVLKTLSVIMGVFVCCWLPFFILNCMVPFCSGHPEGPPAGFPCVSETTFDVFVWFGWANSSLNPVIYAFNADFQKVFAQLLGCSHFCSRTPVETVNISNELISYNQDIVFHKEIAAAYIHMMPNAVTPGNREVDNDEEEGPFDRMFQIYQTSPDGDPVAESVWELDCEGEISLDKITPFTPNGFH
Sequence of UniProt P41145 (whole entry, looked up): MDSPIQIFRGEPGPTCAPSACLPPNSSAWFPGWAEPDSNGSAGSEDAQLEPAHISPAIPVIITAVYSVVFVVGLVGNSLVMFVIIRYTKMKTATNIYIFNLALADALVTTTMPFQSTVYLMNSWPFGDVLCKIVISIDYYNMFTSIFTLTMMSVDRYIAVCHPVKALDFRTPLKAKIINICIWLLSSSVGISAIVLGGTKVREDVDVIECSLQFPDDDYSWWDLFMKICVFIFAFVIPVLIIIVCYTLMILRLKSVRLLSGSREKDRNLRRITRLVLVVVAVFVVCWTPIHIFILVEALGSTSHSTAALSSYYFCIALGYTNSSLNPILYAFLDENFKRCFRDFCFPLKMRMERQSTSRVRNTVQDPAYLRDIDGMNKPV
Sequence of UniProt P35372 (whole entry, looked up): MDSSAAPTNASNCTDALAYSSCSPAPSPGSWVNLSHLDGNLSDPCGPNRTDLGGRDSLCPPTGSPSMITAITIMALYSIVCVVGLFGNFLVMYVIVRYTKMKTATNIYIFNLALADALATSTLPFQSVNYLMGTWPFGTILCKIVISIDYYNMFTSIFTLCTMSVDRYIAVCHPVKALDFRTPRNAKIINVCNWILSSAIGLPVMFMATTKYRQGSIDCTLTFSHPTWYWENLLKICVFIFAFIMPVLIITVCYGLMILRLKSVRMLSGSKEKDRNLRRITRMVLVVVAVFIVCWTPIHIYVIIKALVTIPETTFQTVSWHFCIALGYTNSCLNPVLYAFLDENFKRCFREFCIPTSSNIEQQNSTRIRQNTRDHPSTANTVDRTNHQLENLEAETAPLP
Sequence of UniProt P23975 (whole entry, looked up): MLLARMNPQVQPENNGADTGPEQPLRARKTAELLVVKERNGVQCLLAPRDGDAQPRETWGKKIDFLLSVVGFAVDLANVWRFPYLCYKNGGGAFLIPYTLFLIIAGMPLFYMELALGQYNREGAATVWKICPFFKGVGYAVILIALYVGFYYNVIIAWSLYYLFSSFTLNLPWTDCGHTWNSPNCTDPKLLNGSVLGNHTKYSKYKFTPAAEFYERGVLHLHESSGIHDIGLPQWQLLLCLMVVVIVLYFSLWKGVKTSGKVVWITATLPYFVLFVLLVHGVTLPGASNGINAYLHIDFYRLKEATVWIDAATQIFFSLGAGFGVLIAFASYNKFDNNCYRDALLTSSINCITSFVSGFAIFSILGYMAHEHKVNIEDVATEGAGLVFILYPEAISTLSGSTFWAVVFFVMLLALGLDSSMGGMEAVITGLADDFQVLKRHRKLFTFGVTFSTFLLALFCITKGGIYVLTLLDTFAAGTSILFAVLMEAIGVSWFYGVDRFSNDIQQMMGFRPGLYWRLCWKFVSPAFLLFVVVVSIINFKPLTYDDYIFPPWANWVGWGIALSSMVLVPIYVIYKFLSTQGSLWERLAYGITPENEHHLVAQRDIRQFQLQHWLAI

Block 1
Target: Beta-1 adrenergic receptor (ADRB1, Homo sapiens, UniProt P08588)
Sequence of UniProt P08588 (whole entry, looked up): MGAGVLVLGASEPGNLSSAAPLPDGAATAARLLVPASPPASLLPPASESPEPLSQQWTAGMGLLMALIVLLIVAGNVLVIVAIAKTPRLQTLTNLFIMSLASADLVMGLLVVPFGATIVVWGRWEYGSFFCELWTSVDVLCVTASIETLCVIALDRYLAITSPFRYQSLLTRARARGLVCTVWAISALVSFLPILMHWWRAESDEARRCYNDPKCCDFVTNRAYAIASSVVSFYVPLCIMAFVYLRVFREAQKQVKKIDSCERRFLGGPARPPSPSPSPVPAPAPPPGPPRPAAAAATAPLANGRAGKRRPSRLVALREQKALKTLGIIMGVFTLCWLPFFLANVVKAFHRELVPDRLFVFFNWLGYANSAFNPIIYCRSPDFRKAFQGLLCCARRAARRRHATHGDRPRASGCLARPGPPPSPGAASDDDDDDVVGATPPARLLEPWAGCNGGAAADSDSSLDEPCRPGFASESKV
Mode: agonist
SMILES	pEC50
Cc1[nH]c2ccc(O)cc2c1CCN	≤ 4.00
CC(C)(C)NC[C@H](O)c1ccc(O)cc1Cl	8.08
Cn1c(N2CCNCC2)cc(=O)n(C)c1=O	≤ 4.00
CN1CCN(c2ccc3ccccc3n2)CC1	≤ 4.00

Block 2
SMILES: CCC(=O)N[C@H]1CC[C@@H](C(=O)N(C)c2ccc(-c3nc4ccccc4o3)cc2)C1
Effect on: binding
Method: radioligand binding
Concentration: 10 µM
target	inhibition
SLC6A4 (Homo sapiens, UniProt P31645)	32.8%
OPRM1 (Homo sapiens, UniProt P35372)	10.3%
DRD5 (Homo sapiens, UniProt P21918)	-9.45%
CHRM3 (Homo sapiens, UniProt P20309)	-14.8%
OPRK1 (Homo sapiens, UniProt P41145)	-6.54%
SLC6A2 (Homo sapiens, UniProt P23975)	2.94%

Block 3
Organism: Plasmodium berghei
Cell line: Huh-7
Strain: liver stage
Concentration: 10 µM
Time: 24 h
Relative to: control
SMILES	parasite load
C=C[C@H]1CN2CC[C@H]1C[C@@H]2[C@@H](O)c1ccnc2ccccc12	64%
FC(F)(F)COCC(F)(F)F	91.7%
CCCSc1ccc2[nH]c(NC(=O)OC)nc2c1	102%
CCC(=O)O[C@H]1CC[C@H]2[C@@H]3CCc4cc(O)ccc4[C@H]3CC[C@]12C	129%

Further values, each from its own experiment
Species: mouse
Matrix: microsomes or S9
Concentration: 2 µM
Time: 0.5 h
Structure (SMILES)	remaining compound
COc1cc2c(cc1OC)[C@@H]1C(=O)c3ccc4oc(C(C)C)cc4c3O[C@@H]1CO2	4.58%
C=C(C)[C@H]1Cc2c(ccc3c2O[C@@H]2COc4cc(OC)c(OC)cc4[C@@H]2C3=O)O1	0.323%

A few entries again (further values, each from its own experiment):
Structure (SMILES)	remaining compound
COc1cc2c(cc1OC)[C@@H]1C(=O)c3ccc4oc(C(C)C)cc4c3O[C@@H]1CO2	4.58%
